Experimental data from different studies.
Numbers after ± are the reported error.

N[C@]1(c2ccccc2Cl)CCC[C@@H](O)C1=O
dose-normalized Cmax (female CD-1 mice, plasma; intraperitoneal, 5 mg/kg): 142 ± 9.4 ng/mL per mg/kg

CN1COCN(Cc2cnc(Cl)s2)/C1=N\[N+](=O)[O-]
EC10 (Folsomia candida; reproduction, OECD 232; LUFA 2.2 soil; 28 days): 0.1 mg/kg dry soil

CSCC[C@@H]1NC(=O)[C@H](CC(=O)O)NC(=O)CNC(=O)[C@H](CCCNC(=N)N)NC(=O)[C@H](C)NC(=O)[C@H](CCC(=O)O)NC(=O)[C@H](CCCNC(=N)N)NC(=O)[C@@H]2CSSC[C@@H]3NC(=O)[C@H](CO)NC(=O)[C@H]([C@@H](C)O)NC(=O)[C@@H]4CCCN4C(=O)[C@H](C)NC(=O)[C@H](Cc4c[nH]c5ccccc45)NC(=O)[C@H](CC(=O)O)NC(=O)CNC(=O)[C@H](CCCNC(=N)N)NC(=O)CNC(=O)[C@H](CCC(N)=O)NC(=O)[C@@H]4CCCN4C(=O)[C@@H](NC(=O)CNC(=O)C(C)F)CSSC[C@H](NC(=O)CNC(=O)[C@H](C)NC(=O)[C@H](CC(C)C)NC(=O)[C@H](CSSC[C@@H](C(=O)NCC(N)=O)NC(=O)[C@H]([C@@H](C)O)NC(=O)[C@H](CCCNC(=N)N)NC(=O)[C@@H]4CCCN4C1=O)NC(=O)[C@H](CC(=O)O)NC(=O)[C@H](CO)NC(=O)[C@H](CC(=O)O)NC(=O)[C@H](CCC(N)=O)NC(=O)[C@H](CO)NC3=O)C(=O)N[C@@H](C(C)C)C(=O)N2 (some centres unmarked) [fluorine-18 labelled]
tissue uptake (nude mice U-87 MG xenograft, brain; intravenous, 0.5 h): 0.13 ± 0.03 %ID/g

C[C@H]1CNCCc2ccc(Cl)cc21
CL/F (male Sprague-Dawley rat, plasma; subcutaneous, pimavanserin 1 + lorcaserin 1 mg/kg, pimavanserin 15 min earlier): 319 ± 16.5 mL/min/kg

CN1CC[C@@]23CCCC[C@@H]2[C@@H]1Cc1ccc(O)cc13
AUC(0-inf) (Wistar rat, both sexes, plasma; oral, 5 mg/kg DEM, DEM 2 h after pretreatment, with: QN 2.5 mg/kg single pretreatment): 56.9 ± 11.8 ng·h/mL

CN1CC[C@]23c4c5ccc(O)c4O[C@H]2[C@@H](O[C@@H]2O[C@H](C(=O)O)[C@@H](O)[C@H](O)[C@H]2O)C=C[C@H]3[C@H]1C5
Papp (MDCK II; 10.0 µg/mL, 100 min, DMEM buffer): 2.15 ± 0.06 ×10⁻⁶ cm/s

CN[C@@](C)(C[18F])C(=O)O
tracer uptake (MDA-MB-468 tumour model; host not given, blood; 1 h, tumour-bearing): 1 %ID/g

[123I]c1cncc(OC[C@@H]2CCN2)c1
tissue/plasma ratio (SPECT; human, frontal lobe; intravenous bolus, 8.6 mCi; baseline: tissue over plasma): 12.8

For quick reference, copied from above:
CN[C@@](C)(C[18F])C(=O)O
tracer uptake (MDA-MB-468 tumour model; host not given, blood; 1 h, tumour-bearing): 1 %ID/g
